Results pooled from the literature.
Parts stem from different laboratories: compare values within a part only.

Series 1 — method: RNA Bind-n-Seq; form: RNA; sample: in vitro; concentration: 20 nM; setting: 6-mer, flanks averaged, single round; added: 150 mM LiCl; baseline: input library; direction: higher = stronger binding
Target: TAR DNA-binding protein 43, full length, His tag (TARDBP, Homo sapiens, UniProt Q13148, residues 1-414)
Strand | 6-mer enrichment (R)
UGCGGA | 1.03
AAGAGA | 0.945
GAAUAC | 0.81
UAACCG | 0.836
AGCGCG | 1.05

Series 2 — method: RNA Bind-n-Seq; form: RNA; sample: in vitro; concentration: 200 nM; setting: whole 134-nt RNA, ends assumed; added: 150 mM LiCl; baseline: input library; direction: higher = stronger binding; library: 7-deaza-guanosine replaces G
Target: Ras GTPase-activating protein-binding protein 1, full length (G3BP1, Homo sapiens, UniProt Q13283)
UniProt Q13283, sequence (whole entry, looked up): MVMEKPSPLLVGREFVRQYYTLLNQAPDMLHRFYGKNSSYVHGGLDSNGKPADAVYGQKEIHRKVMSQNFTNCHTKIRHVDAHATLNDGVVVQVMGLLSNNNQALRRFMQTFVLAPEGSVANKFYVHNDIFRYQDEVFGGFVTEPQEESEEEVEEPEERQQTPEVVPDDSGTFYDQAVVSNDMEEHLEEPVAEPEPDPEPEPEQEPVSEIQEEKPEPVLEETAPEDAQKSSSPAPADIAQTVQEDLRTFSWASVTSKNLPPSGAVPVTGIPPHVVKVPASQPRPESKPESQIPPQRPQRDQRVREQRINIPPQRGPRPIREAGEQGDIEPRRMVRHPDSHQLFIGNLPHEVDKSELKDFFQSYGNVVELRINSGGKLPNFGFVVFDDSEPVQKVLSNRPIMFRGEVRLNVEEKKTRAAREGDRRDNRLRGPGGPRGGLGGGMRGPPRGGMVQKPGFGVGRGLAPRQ
Strand | log2 enrichment
GGGAGUUCUACAGUCCGACGAUCAAGUCCUGUGCUACACAUCGUAUGUACCGAAUCGGGGUUUGGGGUUUGGGGUUUGGAAAGUAUUAUGUUACGCCGUUCGGAUCUGCACUUUGGAAUUCUCGGGUGUCAAGG | -0.629
GGGAGUUCUACAGUCCGACGAUCUGGGAGGUGGAUUUUGUUUAUUUUUUUAGCUCAUUUCCAGGGGUGGGAUUUUUUUUUUAAUAUGUGUCAUGAAUAAAGUUGUUUUUGAAAUGGAAUUCUCGGGUGUCAAGG | -0.348
GGGAGUUCUACAGUCCGACGAUCACCAUGCAGGUGGGCAUCUUUGGGAAGUGGGGCAAGGGGGGGAUAGGGAGGGGGGGAACACUUUGGGAACAGGUGGUCCCAGGUCGUUUCUGGAAUUCUCGGGUGUCAAGG | 0.157

Series 3 — method: universal PBM; form: double-stranded DNA, one strand shown; sample: in vitro; concentration: not given; direction: higher = stronger binding
Target: Sal-like protein 4, full length isoform B (SALL4, Homo sapiens, UniProt Q9UJQ4-2, residues 1-616)
Setting: 8-mer, flanks averaged, mean of replicates
Strand | E-score
GGGGGCAC | -0.194
AGACAGAT | 0.156
GAGGAACC | -0.0723
CGACAACA | -0.139
AGCTCCAC | -0.234

Other studies, line by line
Substance | target | assay | system | conditions | how to read | endpoint | value
PhoQ, residues 284 288 289 292 302 303 SSCCRF | PhoP, residues 12 14 15 18 19 LYHSL (Escherichia coli, UniProt P23836) | Sort-seq, item: YFP reporter | E. coli | PhoQ-PhoP variant library, added: 10 µM Mg2+ | baseline: high Mg2+ state, higher = stronger signaling | fold induction | 1.7
